Assay results gathered from unrelated publications.
Every numbered part comes from another study and shows a few of its results, in no order. Several values in a cell are separate wells, animals, samples, runs or records.
UniProt Q5VT25, sequence (whole entry, looked up): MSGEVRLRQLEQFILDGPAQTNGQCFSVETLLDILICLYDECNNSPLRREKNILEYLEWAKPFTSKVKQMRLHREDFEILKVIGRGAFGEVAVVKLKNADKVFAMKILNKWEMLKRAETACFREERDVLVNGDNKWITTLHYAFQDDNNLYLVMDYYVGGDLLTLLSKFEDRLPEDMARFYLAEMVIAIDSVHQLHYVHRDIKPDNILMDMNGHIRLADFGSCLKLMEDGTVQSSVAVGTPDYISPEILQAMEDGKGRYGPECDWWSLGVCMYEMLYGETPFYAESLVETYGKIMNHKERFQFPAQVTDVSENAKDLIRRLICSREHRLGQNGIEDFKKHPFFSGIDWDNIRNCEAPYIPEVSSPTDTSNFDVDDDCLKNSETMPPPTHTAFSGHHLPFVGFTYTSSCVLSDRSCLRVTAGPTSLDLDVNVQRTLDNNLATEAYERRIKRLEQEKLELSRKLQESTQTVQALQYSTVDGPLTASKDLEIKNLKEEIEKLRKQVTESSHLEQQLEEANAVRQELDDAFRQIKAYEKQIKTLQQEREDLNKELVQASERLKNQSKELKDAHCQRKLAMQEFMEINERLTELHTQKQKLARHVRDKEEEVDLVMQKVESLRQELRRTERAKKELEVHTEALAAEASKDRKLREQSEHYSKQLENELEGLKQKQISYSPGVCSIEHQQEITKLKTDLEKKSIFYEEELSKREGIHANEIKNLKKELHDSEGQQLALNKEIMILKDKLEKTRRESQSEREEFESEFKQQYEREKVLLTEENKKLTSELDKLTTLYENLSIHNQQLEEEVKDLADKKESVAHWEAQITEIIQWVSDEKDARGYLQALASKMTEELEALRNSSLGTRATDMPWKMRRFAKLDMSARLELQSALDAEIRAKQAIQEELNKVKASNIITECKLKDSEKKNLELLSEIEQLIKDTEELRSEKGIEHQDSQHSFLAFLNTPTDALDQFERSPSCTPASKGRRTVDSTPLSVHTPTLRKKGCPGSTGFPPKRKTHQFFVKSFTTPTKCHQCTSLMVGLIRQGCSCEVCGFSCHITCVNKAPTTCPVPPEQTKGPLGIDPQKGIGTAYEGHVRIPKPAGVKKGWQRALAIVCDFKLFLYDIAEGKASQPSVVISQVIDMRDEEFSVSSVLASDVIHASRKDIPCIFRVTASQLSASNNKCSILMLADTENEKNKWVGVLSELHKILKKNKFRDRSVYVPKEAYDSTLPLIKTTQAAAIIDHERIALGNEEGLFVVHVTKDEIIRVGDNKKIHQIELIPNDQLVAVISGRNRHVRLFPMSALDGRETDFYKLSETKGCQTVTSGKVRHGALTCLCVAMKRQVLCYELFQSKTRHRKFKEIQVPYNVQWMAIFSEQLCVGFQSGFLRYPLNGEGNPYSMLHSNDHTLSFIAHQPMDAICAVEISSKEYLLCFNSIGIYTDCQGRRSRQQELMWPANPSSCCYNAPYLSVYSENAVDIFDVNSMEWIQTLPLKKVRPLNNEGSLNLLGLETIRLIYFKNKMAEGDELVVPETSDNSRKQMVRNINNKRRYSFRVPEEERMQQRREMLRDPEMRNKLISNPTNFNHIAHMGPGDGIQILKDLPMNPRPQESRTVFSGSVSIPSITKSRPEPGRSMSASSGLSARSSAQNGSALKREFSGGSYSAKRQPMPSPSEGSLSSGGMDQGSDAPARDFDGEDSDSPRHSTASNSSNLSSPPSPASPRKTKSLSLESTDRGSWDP
UniProt Q9BUB5, sequence (whole entry, looked up): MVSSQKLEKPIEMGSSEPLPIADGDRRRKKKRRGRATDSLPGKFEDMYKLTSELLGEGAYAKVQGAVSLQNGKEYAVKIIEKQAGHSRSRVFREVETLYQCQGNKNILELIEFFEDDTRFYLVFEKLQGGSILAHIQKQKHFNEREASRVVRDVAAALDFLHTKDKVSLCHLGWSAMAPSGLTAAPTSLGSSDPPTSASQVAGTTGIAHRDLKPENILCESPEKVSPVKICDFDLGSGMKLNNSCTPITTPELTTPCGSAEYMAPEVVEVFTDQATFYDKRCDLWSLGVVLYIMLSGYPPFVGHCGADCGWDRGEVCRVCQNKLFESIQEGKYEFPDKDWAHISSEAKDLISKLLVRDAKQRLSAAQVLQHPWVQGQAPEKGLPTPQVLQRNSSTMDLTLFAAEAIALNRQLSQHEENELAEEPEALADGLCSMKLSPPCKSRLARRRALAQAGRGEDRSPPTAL
UniProt Q9UHD2, sequence (whole entry, looked up): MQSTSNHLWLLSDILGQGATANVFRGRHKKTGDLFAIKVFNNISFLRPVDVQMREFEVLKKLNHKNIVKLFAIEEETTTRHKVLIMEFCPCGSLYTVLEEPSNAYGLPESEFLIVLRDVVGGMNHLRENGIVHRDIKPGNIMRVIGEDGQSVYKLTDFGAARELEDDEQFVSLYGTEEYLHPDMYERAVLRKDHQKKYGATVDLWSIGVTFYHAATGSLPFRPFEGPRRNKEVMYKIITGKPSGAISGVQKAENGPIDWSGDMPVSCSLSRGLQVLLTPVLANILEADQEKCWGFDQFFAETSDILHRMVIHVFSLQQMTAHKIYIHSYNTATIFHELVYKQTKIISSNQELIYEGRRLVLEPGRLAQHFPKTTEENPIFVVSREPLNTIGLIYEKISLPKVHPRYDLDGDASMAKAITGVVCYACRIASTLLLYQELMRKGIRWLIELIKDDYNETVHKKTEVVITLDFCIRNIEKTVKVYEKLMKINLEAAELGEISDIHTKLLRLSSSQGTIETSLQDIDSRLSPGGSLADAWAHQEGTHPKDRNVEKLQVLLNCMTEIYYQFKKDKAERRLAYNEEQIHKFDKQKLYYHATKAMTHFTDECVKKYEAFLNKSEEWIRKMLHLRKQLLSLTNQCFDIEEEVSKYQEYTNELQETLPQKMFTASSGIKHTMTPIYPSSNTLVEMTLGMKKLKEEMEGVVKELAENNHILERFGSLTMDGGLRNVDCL
UniProt Q96J92, sequence (whole entry, looked up): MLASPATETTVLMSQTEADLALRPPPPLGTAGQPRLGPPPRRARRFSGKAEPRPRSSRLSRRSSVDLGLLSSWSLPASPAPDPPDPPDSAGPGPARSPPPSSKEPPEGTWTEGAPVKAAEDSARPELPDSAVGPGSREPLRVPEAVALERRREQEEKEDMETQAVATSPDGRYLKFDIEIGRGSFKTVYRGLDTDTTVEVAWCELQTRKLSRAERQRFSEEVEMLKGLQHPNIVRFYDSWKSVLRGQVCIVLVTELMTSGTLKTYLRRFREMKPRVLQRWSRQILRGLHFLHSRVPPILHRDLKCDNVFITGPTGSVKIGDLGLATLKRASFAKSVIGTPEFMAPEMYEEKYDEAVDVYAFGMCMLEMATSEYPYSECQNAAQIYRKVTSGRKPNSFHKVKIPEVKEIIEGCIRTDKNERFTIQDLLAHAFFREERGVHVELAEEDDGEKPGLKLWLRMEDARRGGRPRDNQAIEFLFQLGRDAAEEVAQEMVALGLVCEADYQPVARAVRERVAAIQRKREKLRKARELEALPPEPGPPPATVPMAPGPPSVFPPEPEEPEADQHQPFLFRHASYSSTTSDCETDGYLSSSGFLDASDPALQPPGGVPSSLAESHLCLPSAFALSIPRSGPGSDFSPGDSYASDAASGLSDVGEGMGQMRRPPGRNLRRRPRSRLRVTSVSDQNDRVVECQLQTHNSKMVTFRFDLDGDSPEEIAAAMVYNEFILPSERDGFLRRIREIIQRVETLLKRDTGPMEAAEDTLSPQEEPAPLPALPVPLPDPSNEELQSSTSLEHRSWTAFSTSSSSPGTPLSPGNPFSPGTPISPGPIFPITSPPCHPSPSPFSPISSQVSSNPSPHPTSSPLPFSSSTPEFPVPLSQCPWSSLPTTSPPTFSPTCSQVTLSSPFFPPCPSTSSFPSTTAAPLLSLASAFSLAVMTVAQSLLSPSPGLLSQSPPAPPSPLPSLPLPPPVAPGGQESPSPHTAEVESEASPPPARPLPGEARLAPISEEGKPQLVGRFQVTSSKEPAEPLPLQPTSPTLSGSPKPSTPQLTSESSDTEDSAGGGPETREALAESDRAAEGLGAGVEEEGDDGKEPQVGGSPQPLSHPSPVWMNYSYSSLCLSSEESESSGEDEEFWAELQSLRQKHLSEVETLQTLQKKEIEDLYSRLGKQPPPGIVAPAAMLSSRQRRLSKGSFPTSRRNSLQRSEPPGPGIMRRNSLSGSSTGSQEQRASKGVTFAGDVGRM
UniProt Q15349, sequence (whole entry, looked up): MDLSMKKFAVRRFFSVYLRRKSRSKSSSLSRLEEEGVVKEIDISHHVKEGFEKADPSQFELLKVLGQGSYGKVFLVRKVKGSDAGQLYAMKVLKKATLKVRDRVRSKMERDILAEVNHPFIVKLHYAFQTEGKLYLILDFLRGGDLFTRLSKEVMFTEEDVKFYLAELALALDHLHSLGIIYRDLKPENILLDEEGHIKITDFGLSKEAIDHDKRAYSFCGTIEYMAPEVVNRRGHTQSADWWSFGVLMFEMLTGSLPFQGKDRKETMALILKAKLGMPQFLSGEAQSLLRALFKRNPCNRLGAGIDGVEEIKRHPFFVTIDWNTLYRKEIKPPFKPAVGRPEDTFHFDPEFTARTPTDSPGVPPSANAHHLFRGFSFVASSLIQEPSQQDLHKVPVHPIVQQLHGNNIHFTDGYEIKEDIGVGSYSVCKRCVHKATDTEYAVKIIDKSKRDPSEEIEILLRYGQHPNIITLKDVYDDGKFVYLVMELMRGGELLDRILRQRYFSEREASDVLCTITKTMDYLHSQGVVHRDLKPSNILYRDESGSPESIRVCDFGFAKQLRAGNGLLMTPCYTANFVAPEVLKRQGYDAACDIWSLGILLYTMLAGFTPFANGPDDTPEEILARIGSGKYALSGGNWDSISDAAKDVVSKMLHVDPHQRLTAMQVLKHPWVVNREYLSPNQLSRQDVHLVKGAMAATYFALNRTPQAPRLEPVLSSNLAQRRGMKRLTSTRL

Block 1 — technique: protein-binding microarray; form: double-stranded DNA, one strand shown; matrix: in vitro; concentration: not given; reading: higher = stronger binding; endpoint: E-score
Target: Max-binding protein MNT, bHLH-zipper, MAX partner unstated (MNT, Homo sapiens, UniProt Q99583, residues 220-300)
Notes: k-mer, scored over probes, only values ≥0.25
Target sequence (chain): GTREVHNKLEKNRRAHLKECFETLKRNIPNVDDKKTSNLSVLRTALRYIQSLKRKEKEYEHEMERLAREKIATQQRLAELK
ATGTGACG: 0.302
ACATGGCG: 0.356
ATGCTGCA: 0.268
CACGCATA: 0.318
AAAACGTG: 0.443
ACGCCATG: 0.381
AAGCGTGC: 0.395
CACATGAG: 0.394

Block 2 — technique: resazurin; endpoint: cytotoxicity
SMILES: c1ccc(Oc2ccc(Nc3c4c(nc5ccccc35)CCC4)cc2)cc1
HepG2; 0.66 µM, 48 h: 2%
RAW264.7; 0.066 µM: 10% and -8%
HEK293; 0.0066 µM, 10% serum: 9% and 4%
HepG2; 66.66 µM, 48 h: 83% and 82%

Block 3 — species: human; matrix: microsomes or S9; concentration: 2 µM; time: 0.5 h; endpoint: remaining compound
COc1nc(OC)nc(Oc2ccc(NC(=O)c3c[nH]c4ccccc34)cc2)n1: > 99%
C[C@H](Nc1ccnc2c1NC(=O)CN2)c1cc2cccc(Cl)c2c(=O)n1-c1ccccc1: 75.7%
O=C(O)Cn1cnc(S(=O)(=O)N2CCCC2)c1: 98.4%

Block 4 — effect on: cell-free assay; technique: competition with immobilised ligand; concentration: 1 µM; endpoint: remaining binding
Compound: CCCOc1ccc([C@H]2[C@H](C(=O)O)[C@@H](c3ccc4c(c3)OCO4)CN2CC(=O)Nc2c(CC)cccc2CC)cc1
TBK1 (Homo sapiens, UniProt Q9UHD2): 91%
WNK4 (Homo sapiens, UniProt Q96J92): 81%
CDC42BPA (Homo sapiens, UniProt Q5VT25): 94%
SRPK1 (Homo sapiens, UniProt Q96SB4): 95%
EGFR (Homo sapiens, UniProt P00533, L858R/T790M): 75%
SIK2 (Homo sapiens, UniProt Q9H0K1): 89%
MAPK14 (Homo sapiens, UniProt Q16539): 99%
MKNK1 (Homo sapiens, UniProt Q9BUB5): 65%
Ribosomal protein S6 kinase alpha-2, N-terminal kinase domain (RPS6KA2, Homo sapiens, UniProt Q15349): 93%
WNK1 (Homo sapiens, UniProt Q9H4A3): 89%
COQ8B (Homo sapiens, UniProt Q96D53): 90%
MET (Homo sapiens, UniProt P08581, M1250T): 71%
PIK3CA (Homo sapiens, UniProt P42336, E545K): 61%

Other studies, line by line
C[C@]12C=CC(=O)C=C1CC[C@H]1[C@@H]3C[C@@H](O)[C@](O)(C(=O)CO)[C@@]3(C)C[C@H](O)[C@@]12F
nuclear SOX9 intensity (mouse MPNST tumor cells; high-content immunofluorescence imaging, item: nuclear SOX9; 10 µM, 12 h, mean of 2 replicates; reference: DMSO control, higher = more nuclear SOX9): 89 % of DMSO

For quick reference, copied from above (block 4):
SRPK1 (Homo sapiens, UniProt Q96SB4): 95%
EGFR (Homo sapiens, UniProt P00533, L858R/T790M): 75%
SIK2 (Homo sapiens, UniProt Q9H0K1): 89%
MAPK14 (Homo sapiens, UniProt Q16539): 99%
MKNK1 (Homo sapiens, UniProt Q9BUB5): 65%
